# Assay results gathered from unrelated publications.
# Protocols differ between the studies behind these lines.
# Organism: Acinetobacter baumannii
SMILES,assay,system,setting,MIC
CC[C@H](C)[C@H](NC(=O)[C@H](Cc1c[nH]c2ccccc12)NC(=O)[C@H](CCCNC(=N)N)NC(=O)[C@@H](N)CCCNC(=N)N)C(=O)N[C@@H](CCCNC(=N)N)C(=O)N[C@@H](Cc1c[nH]c2ccccc12)C(=O)N[C@H](C(=O)N[C@H](C(N)=O)[C@@H](C)O)[C@@H](C)CC,,,without added MgSO4,16 µg/mL
CCCCCCCCCCCCCCCCCCn1cc(CN(CCC(=O)NCCN(CCC(=O)NCCN(CCC(=O)NCCN(C)C)CCC(=O)NCCN(C)C)CCC(=O)NCCN(CCC(=O)NCCN(C)C)CCC(=O)NCCN(C)C)CCC(=O)NCCN(CCC(=O)NCCN(CCC(=O)NCCN(C)C)CCC(=O)NCCN(C)C)CCC(=O)NCCN(CCC(=O)NCCN(C)C)CCC(=O)NCCN(C)C)nn1,"microbial growth, broth dilution","MDR, ATCCBAA1791",18 h,6 µg/mL
CCCCCCCC(=O)N[C@@H](CCN)C(=O)N[C@H](C(=O)N[C@@H](CCN)C(=O)N[C@H]1CCNC(=O)[C@H]([C@@H](C)O)NC(=O)[C@H](CCN)NC(=O)[C@H](C)NC(=O)[C@H](CC(C)C)NC(=O)[C@@H](Cc2ccccc2)NC(=O)[C@H](CCN)NC1=O)[C@@H](C)O,CLSI broth microdilution,"5075, CAMHB","20 h, 37 °C",16 µg/mL
CC[C@H](C)[C@H](N)C(=O)N[C@@H](CCCNC(=N)N)C(=O)N[C@H](C(=O)N[C@@H](Cc1c[nH]c2ccccc12)C(=O)N[C@@H](CCCCN)C(=O)N[C@@H](CCCCN)C(=O)N[C@H](C(=O)N[C@H](C(=O)N[C@@H](CCCNC(=N)N)C(=O)N[C@@H](CCCCN)C(=O)N[C@@H](Cc1c[nH]c2ccccc12)C(=O)N[C@@H](CCCCN)C(=O)N[C@@H](C)C(=O)N[C@H](C(=O)N[C@@H](Cc1c[nH]c2ccccc12)C(=O)N[C@@H](Cc1c[nH]cn1)C(N)=O)[C@@H](C)CC)C(C)C)[C@@H](C)CC)C(C)C,broth dilution,ATCC 19606,,< 3.1 µM
CN[C@@H]1[C@H](O)[C@H](NC)[C@H]2O[C@]3(O)[C@H](O[C@@H]2[C@H]1O)O[C@H](C)C[C@H]3NC(=O)CNC(C)(C)C,"microbial growth, broth dilution",ATCC19606,,> 200 µg/mL
CC[C@H](C)[C@H](NC(=O)[C@@H](CCCNC(=N)N)NC(=O)[C@H](CCCNC(=N)N)NC(=O)[C@@H]1CCCN1C(=O)[C@@H]1CCCN1C(=O)[C@H](CCCNC(=N)N)NC(=O)[C@@H]1CCCN1C(=O)[C@H](CCCNC(=N)N)NC(=O)[C@@H]1CCCN1C(=O)[C@H](CC(C)C)NC(=O)[C@H](Cc1ccc(O)cc1)NC(=O)[C@@H]1CCCN1C(=O)[C@@H]1CCCN1C(=O)[C@H](CCCCN)NC(=O)[C@H](CC(=O)O)NC(=O)[C@@H](N)C(C)C)C(=O)N[C@@H](Cc1cc(I)c(O)c(I)c1)C(=O)N[C@@H](CC(N)=O)C(=O)N[C@H](CCCNC(=N)N)C(N)=O,broth microdilution,DSM 30008,"18 h, 37 °C, 25% MHB2",32 µg/mL
CC(=O)N[C@H](Cc1c(F)c(F)c(F)c(F)c1F)C(=O)N[C@@H](CCN)C(=O)N[C@H](C(=O)N[C@@H](CCN)C(=O)N[C@H]1CCNC(=O)[C@H]([C@@H](C)O)NC(=O)[C@H](CCN)NC(=O)[C@H](CCN)NC(=O)[C@H](CC(C)C)NC(=O)[C@@H](Cc2ccccc2)NC(=O)[C@H](CCN)NC1=O)[C@@H](C)O,broth microdilution,colistin-resistant isolates,,8 to 16 µg/mL
CC(=CC(C)CCCCC(=O)O)C1OC2C=CC1OC(=O)C=CC=CC=CC1OC3CC1OC(C=CCC1OC(CC(O)C1C)C(O)C(O)C=CCCC=CC2)C3C (stereo not shown),microbial growth,DSM30007,,> 20 µM
CC(C)C[C@@H]1NC(=O)[C@@H](CC(C)C)NC(=O)[C@H](CCN)NC(=O)[C@@H](NC(=O)[C@H](CCN)NC(=O)[C@@H](NC(=O)CCOCCOCCOCCN=[N+]=[N-])[C@@H](C)O)CCNC(=O)[C@H]([C@@H](C)O)NC(=O)[C@H](CCN)NC(=O)[C@H](CCN)NC1=O,broth microdilution,BAA-747,,> 111 µM
CCCCCCCC(=O)N[C@@H](CCN)C(=O)N[C@H](C(=O)N[C@@H](CCN)C(=O)N[C@H]1CCNC(=O)[C@H]([C@@H](C)O)NC(=O)[C@H](CCN)NC(=O)[C@H](CCN)NC(=O)[C@H](Cc2ccc(Cl)cc2)NC(=O)[C@@H](CC(C)C)NC(=O)[C@H](CCN)NC1=O)[C@@H](C)O,broth microdilution,colistin-resistant isolates,,1 to 2 µg/mL
CC[C@H](C)[C@H](NC(=O)[C@@H](CCCNC(=N)N)NC(=O)[C@H](CCCNC(=N)N)NC(=O)[C@H](Cc1ccccc1)NC(=O)[C@H](Cc1c[nH]c2ccccc12)NC(=O)[C@H](CCCNC(=N)N)NC(=O)[C@@H]1CCCN1C(=O)[C@H](CCCNC(=N)N)NC(=O)[C@@H]1CCCN1C(=O)[C@H](CC(C)C)NC(=O)[C@H](Cc1ccc(O)cc1)NC(=O)[C@@H]1CCCN1C(=O)[C@@H]1CCCN1C(=O)[C@H](CCCCN)NC(=O)[C@H](CC(=O)O)NC(=O)[C@@H](N)C(C)C)C(=O)N[C@@H](Cc1ccc(O)cc1)C(=O)N[C@@H](CC(N)=O)C(=O)N[C@H](CCCNC(=N)N)C(N)=O,broth microdilution,DSM 30008,"18 h, 37 °C, 25% MHB2",8 µg/mL
CCCCCCCC(=O)N[C@@H](CCN)C(=O)N[C@H](C(=O)N[C@@H](CCN)C(=O)N[C@H]1CCNC(=O)[C@H]([C@@H](C)O)NC(=O)[C@H](CCN)NC(=O)[C@H](CCN)NC(=O)[C@H](C)NC(=O)[C@@H](Cc2ccccc2)NC(=O)[C@H](CCN)NC1=O)[C@@H](C)O,CLSI broth microdilution,"5075, CAMHB","20 h, 37 °C",2 µg/mL
CC[C@H](C)[C@H](NC(=O)[C@H](CCCCN)NC(=O)[C@H](Cc1c[nH]c2ccccc12)NC(=O)[C@H](Cc1c[nH]c2ccccc12)NC(=O)[C@H](CCCCN)NC(=O)[C@H](CCCCN)NC(=O)[C@H](CCCCN)NC(=O)[C@H](Cc1c[nH]c2ccccc12)NC(=O)[C@H](CCCCN)NC(=O)[C@H](CCCCN)NC(=O)[C@H](Cc1c[nH]c2ccccc12)NC(=O)[C@H](CCCCN)NC(=O)[C@H](CCCCN)NC(=O)[C@@H](NC(=O)[C@@H](NC(=O)[C@H](CCCCN)NC(=O)[C@@H](N)CCCNC(=N)N)[C@@H](C)CC)[C@@H](C)CC)C(=O)N[C@@H](Cc1c[nH]c2ccccc12)C(=O)N[C@@H](Cc1c[nH]c2ccccc12)C(=O)N[C@@H](CCCCN)C(N)=O,broth microdilution,18,,1.25 µg/mL
CCCCCCCC(=O)N[C@@H](CCN)C(=O)N[C@H](C(=O)N[C@@H](CCN)C(=O)N[C@H]1CCNC(=O)[C@H](C)NC(=O)[C@H](CCN)NC(=O)[C@H](CCN)NC(=O)[C@H](CC(C)C)NC(=O)[C@@H](Cc2ccccc2)NC(=O)[C@H](CCN)NC1=O)[C@@H](C)O,CLSI broth microdilution,"5075, CAMHB","20 h, 37 °C",1 µg/mL
CCn1c(-c2ccc(OC)cc2)c(-c2ccc(OC)cc2)n(Cc2c(C)cc(C)cc2C)c1=[Se],broth microdilution,carbapenem-resistant,24 h,> 40 µM
CC[C@H](C)[C@H](NC(=O)[C@@H](CCCNC(=N)N)NC(=O)[C@H](CCCNC(=N)N)NC(=O)[C@@H]1CCCN1C(=O)[C@@H]1CCCN1C(=O)[C@H](CCCNC(=N)N)NC(=O)[C@@H]1CCCN1C(=O)[C@H](CCCNC(=N)N)NC(=O)[C@@H]1CCCN1C(=O)[C@H](CC(C)C)NC(=O)[C@H](Cc1ccc(O)cc1)NC(=O)[C@@H]1CCCN1C(=O)[C@H](Cc1ccc(O)cc1)NC(=O)[C@H](CCCCN)NC(=O)[C@H](CC(=O)O)NC(=O)[C@@H](N)C(C)C)C(=O)N[C@@H](Cc1ccc(O)cc1)C(=O)N[C@@H](CC(N)=O)C(=O)N[C@H](CCCNC(=N)N)C(N)=O,broth microdilution,DSM 30008,"18 h, 37 °C, 25% MHB2",32 µg/mL
CCCCCCCC(=O)N[C@@H](CCN)C(=O)N[C@H](C(=O)N[C@@H](CCN)C(=O)N[C@H]1CCNC(=O)[C@H]([C@@H](C)O)NC(=O)[C@H](CCN)NC(=O)[C@H](CCN)NC(=O)[C@H](CC(C)C)NC(=O)[C@@H](Cc2ccccc2F)NC(=O)[C@H](CCN)NC1=O)[C@@H](C)O,broth microdilution,"ATCC 19606, colistin-susceptible",,0.06 to 0.125 µg/mL
CC[C@H](C)[C@H](NC(=O)[C@H](Cc1c[nH]c2ccccc12)NC(=O)[C@H](CCCNC(=N)N)NC(=O)[C@@H]1CCCN1C(=O)[C@H](CCCNC(=N)N)NC(=O)[C@@H]1CCCN1C(=O)[C@H](CC(C)C)NC(=O)[C@H](Cc1ccc(O)cc1)NC(=O)[C@@H]1CCCN1C(=O)[C@@H]1CCCN1C(=O)[C@H](CCCCN)NC(=O)[C@H](CC(=O)O)NC(=O)[C@@H](N)C(C)C)C(=O)N[C@@H](CCCNC(=N)N)C(=O)N[C@H](CCCNC(=N)N)C(=O)N[C@H](C(=O)N[C@@H](Cc1ccc(O)cc1)C(=O)N[C@@H](CC(N)=O)C(=O)N[C@H](CCCNC(=N)N)C(N)=O)[C@@H](C)CC,broth microdilution,DSM 30008,"18 h, 37 °C, 25% MHB2",16 µg/mL
CC[C@H](C)[C@H](NC(=O)[C@H](CCCNC(=N)N)NC(=O)[C@H](CO)NC(=O)[C@H](Cc1ccc(O)cc1)NC(=O)[C@@H](NC(=O)[C@@H](NC(=O)[C@H](C)NC(=O)CNC(=O)[C@H](CCCCN)NC(=O)[C@H](CCCCN)NC(=O)CCNC(=O)CCCCCNC(=O)[C@H](CCCNC(=N)N)NC(=O)CCCCCNC(=O)[C@H](CCCNC(=N)N)NC(=O)[C@H](CCCNC(=N)N)NC(=O)CCCCCNC(=O)[C@H](CCCNC(=N)N)NC(=O)[C@H](CCCNC(=N)N)NC(=O)CCCCCNC(=O)[C@H](CCCNC(=N)N)NC(=O)[C@H](CCCNC(=N)N)NC(=O)CCCCCNC(=O)[C@@H](N)CCCNC(=N)N)C(C)C)[C@@H](C)O)C(=O)N[C@@H](CO)C(=O)NCC(=O)N[C@@H](CCC(N)=O)C(=O)N[C@@H](Cc1ccc(O)cc1)C(=O)N[C@@H](CCCCN)C(=O)O,broth microdilution,"ATCC 19606, Mueller-Hinton broth",,12 µM

# Some of these lines once more:
SMILES,assay,system,setting,MIC
CCn1c(-c2ccc(OC)cc2)c(-c2ccc(OC)cc2)n(Cc2c(C)cc(C)cc2C)c1=[Se],broth microdilution,carbapenem-resistant,24 h,> 40 µM
CC(C)C[C@@H]1NC(=O)[C@@H](CC(C)C)NC(=O)[C@H](CCN)NC(=O)[C@@H](NC(=O)[C@H](CCN)NC(=O)[C@@H](NC(=O)CCOCCOCCOCCN=[N+]=[N-])[C@@H](C)O)CCNC(=O)[C@H]([C@@H](C)O)NC(=O)[C@H](CCN)NC(=O)[C@H](CCN)NC1=O,broth microdilution,BAA-747,,> 111 µM
